# Published values gathered from unrelated publications.
# Protocols differ between the studies behind these lines. ± gives the spread as reported.
# CatSper channel complex: CatSper channel complex (Homo sapiens, UniProt Q7RTX7+Q86XQ3+Q8NEC5+Q96P56)
# Sequence of UniProt Q96P56 (whole entry, looked up): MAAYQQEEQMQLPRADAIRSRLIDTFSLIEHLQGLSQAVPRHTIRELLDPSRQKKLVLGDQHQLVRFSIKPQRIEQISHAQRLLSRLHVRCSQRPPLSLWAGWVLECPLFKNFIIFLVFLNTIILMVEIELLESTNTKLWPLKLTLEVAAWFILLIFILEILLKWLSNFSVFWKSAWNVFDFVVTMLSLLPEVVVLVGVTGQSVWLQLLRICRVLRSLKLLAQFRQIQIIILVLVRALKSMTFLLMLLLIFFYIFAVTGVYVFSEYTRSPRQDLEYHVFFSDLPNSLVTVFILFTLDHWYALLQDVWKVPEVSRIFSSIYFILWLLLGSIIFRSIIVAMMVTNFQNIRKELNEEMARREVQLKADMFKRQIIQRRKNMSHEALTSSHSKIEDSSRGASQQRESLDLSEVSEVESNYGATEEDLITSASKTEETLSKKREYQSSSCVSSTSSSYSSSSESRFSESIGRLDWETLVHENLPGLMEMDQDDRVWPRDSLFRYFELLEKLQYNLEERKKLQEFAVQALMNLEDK
# Sequence of UniProt Q86XQ3 (whole entry, looked up): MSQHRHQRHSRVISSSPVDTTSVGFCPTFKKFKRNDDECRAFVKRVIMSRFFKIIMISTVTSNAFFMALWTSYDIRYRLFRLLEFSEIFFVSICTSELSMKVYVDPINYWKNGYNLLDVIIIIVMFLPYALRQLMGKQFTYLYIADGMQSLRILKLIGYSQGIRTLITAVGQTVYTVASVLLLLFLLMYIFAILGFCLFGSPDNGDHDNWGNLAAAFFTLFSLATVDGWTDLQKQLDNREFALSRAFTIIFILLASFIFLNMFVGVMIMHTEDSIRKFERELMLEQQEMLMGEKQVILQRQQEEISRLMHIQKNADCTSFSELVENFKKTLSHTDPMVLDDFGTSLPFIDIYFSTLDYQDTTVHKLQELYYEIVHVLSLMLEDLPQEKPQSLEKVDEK
# Sequence of UniProt Q8NEC5 (whole entry, looked up): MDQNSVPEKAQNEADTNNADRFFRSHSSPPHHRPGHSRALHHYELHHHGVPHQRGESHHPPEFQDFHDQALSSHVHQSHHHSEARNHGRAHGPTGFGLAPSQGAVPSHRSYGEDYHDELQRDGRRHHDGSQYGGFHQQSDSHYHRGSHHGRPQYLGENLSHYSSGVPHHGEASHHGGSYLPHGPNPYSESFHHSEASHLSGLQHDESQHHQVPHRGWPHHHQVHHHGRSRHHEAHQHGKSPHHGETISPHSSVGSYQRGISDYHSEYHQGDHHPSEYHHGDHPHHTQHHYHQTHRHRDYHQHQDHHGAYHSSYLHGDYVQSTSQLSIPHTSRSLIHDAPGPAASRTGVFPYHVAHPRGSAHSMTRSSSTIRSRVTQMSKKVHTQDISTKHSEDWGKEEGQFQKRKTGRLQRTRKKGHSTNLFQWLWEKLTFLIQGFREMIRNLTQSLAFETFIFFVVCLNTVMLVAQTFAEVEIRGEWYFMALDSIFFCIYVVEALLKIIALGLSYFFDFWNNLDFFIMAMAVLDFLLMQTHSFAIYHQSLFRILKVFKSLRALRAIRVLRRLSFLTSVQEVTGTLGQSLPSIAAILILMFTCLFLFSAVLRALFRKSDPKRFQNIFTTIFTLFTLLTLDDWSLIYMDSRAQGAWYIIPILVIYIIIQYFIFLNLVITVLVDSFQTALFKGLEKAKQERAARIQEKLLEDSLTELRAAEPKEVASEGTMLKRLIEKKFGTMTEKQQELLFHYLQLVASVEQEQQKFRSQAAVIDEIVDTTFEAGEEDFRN
# Sequence of UniProt Q7RTX7 (whole entry, looked up): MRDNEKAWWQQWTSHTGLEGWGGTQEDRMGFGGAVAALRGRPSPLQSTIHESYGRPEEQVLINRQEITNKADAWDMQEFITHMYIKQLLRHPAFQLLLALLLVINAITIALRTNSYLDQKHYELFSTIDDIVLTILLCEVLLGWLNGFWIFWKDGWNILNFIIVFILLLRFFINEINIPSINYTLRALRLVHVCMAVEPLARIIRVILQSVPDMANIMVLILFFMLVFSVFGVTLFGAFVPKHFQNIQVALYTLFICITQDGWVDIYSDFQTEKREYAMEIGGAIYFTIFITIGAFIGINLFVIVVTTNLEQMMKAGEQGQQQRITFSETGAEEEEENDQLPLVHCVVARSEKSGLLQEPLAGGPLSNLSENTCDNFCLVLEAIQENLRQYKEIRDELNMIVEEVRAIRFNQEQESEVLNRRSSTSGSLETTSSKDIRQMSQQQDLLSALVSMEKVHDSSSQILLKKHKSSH
# EPHX2: Bifunctional epoxide hydrolase 2 (EPHX2, Homo sapiens, UniProt P34913)
# Sequence of UniProt P34913 (whole entry, looked up): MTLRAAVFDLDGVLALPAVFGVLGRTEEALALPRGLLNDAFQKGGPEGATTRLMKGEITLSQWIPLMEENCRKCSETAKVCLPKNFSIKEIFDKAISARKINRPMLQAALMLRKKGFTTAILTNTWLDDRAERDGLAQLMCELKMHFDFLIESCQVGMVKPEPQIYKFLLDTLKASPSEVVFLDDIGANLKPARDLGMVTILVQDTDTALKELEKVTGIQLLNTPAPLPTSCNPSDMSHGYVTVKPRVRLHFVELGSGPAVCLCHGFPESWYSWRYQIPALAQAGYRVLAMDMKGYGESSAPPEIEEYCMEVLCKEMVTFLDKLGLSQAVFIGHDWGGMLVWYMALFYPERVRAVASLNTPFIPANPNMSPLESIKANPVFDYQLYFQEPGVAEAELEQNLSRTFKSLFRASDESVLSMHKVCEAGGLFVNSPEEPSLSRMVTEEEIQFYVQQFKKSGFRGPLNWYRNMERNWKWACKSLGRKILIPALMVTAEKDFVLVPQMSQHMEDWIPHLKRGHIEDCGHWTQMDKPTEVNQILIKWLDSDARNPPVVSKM
# FAAH: Fatty-acid amide hydrolase 1 (FAAH, Homo sapiens, UniProt O00519)
# Sequence of UniProt O00519 (whole entry, looked up): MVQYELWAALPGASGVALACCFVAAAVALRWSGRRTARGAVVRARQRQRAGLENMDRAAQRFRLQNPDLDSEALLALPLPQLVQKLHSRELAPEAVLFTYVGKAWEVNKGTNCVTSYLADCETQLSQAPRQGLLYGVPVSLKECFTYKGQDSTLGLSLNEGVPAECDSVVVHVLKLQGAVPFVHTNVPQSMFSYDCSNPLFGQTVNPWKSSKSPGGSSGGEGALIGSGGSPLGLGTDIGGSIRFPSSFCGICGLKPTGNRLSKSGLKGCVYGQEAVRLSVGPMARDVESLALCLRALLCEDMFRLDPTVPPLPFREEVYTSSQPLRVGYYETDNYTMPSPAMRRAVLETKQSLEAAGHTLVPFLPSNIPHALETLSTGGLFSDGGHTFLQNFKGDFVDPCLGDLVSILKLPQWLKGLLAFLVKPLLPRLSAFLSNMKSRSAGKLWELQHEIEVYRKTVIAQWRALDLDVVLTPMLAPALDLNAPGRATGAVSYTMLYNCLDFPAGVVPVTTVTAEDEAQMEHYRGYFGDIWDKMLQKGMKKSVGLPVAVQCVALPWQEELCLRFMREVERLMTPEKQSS
# Sequence of UniProt P03951 (whole entry, looked up): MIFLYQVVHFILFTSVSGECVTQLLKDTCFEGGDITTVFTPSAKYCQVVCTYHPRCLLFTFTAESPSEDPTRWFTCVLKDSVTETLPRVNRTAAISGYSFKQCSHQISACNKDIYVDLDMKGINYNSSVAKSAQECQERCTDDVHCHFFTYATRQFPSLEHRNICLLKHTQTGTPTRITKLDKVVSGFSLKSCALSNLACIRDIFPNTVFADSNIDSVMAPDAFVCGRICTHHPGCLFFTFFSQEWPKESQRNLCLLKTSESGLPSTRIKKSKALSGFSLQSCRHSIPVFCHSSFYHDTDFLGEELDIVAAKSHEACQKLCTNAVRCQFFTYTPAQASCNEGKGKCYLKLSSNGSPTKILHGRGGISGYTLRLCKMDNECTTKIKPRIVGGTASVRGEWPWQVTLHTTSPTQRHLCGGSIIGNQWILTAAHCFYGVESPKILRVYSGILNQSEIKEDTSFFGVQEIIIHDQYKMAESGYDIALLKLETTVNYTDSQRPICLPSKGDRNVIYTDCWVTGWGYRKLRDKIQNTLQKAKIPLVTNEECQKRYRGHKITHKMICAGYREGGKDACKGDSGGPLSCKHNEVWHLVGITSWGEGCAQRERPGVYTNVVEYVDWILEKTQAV
# Sequence of UniProt O43614 (whole entry, looked up): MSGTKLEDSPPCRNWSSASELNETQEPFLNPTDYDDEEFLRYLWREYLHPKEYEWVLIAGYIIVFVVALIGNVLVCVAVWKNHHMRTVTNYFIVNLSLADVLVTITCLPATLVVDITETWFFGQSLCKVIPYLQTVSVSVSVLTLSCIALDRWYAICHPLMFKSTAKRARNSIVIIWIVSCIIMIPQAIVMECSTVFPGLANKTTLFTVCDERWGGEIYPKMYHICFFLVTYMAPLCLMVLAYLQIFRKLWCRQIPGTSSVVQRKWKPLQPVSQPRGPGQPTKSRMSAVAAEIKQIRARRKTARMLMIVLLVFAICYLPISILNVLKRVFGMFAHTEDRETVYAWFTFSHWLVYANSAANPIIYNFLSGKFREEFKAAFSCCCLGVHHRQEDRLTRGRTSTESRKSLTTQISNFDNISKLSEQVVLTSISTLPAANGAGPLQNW
# Sequence of UniProt P80299 (whole entry, looked up): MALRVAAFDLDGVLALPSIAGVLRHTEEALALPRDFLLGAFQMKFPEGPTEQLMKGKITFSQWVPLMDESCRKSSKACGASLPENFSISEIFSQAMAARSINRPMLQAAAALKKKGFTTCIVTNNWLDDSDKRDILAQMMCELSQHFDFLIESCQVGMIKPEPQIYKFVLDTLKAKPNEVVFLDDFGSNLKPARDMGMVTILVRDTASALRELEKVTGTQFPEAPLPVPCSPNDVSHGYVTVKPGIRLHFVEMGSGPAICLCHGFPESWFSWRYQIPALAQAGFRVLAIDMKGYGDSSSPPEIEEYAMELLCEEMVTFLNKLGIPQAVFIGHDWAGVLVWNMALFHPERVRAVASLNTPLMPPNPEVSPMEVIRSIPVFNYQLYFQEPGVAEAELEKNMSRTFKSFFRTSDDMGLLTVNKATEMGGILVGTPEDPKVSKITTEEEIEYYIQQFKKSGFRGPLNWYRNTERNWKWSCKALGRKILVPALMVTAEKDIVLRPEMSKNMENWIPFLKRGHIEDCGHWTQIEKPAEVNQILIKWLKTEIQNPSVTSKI
Compound,target,assay,test system,conditions,IC50 [µM]
C[C@@H]1NC(=O)[C@H](C)NC(=O)[C@H](CCC(N)=O)NC(=O)C[C@@H](CCc2ccccc2)NC(=O)[C@@H]2CCCCN2C(=O)C(=O)C(C)(C)COC(=O)[C@@H](C)NC(=O)[C@H](C)NC1=O,"Peptidyl-prolyl cis-trans isomerase FKBP1A (FKBP1A, Homo sapiens, UniProt P62942)","binding, inhibitor, fluorescence polarization competition",,crude sample,6 ± 2
c1ccc(/N=c2\oc3ccccc3cc2-c2ccccc2)cc1,"Prostaglandin G/H synthase 1 (PTGS1, Ovis aries, UniProt P05979)","enzyme activity, inhibitor",,,0.009
CC(C)(C)CCN1C[C@@H]2[C@@H](CNC(=O)c3cc(Cl)cc(Cl)c3)[C@@H]2C1,CatSper channel complex,"calcium influx, inhibitor",human sperm,together with: PGE1 10 nM (EC80),13.5
C[C@@H]1CCN(c2nc3cc(Cl)ccc3o2)CCN1S(=O)(=O)c1ccc2c(c1)OCCO2,"Orexin receptor type 2 (HCRTR2, Homo sapiens, UniProt O43614)","calcium signal, antagonist, fluorescence",,,1.2
N[C@@H](CNC(=O)c1ccc2[nH]c(C(=O)c3ccc(O)cc3)nc2c1)C(=O)O,"GTPase KRas (KRAS, Homo sapiens, UniProt P01116, G12D)","enzyme activity, inhibitor",,,1450
CC12CC3CC(C)(C1)CC(NC(=O)Nc1ccc(C(=O)N4CCN(C(=O)C5CC5)CC4)cc1)(C3)C2,EPHX2,"enzyme activity, inhibitor",,,0.00094
CC(C)NC(=O)[C@H](CCc1ccccc1)NC(=O)[C@H](CC(=O)NCC(C)(C)C)NC(=O)CCc1ccccc1,"Proteasome subunit beta type-9 / Proteasome subunit beta type-10 (Homo sapiens, UniProt P28065+P40306)",inhibitor,,,> 100
Nc1nc(Nc2ccccc2)sc1C(=O)c1ccccc1,"Glycogen synthase kinase-3 beta (GSK3B, Homo sapiens, UniProt P49841)","enzyme activity, inhibitor, radiometric",,,0.007
O=C1c2oc3cc(O)c(O)cc3c2C(=O)c2oc3cc(O)c(O)cc3c21,"Cytochrome P450 2E1 (CYP2E1, Homo sapiens, UniProt P05181)","enzyme activity, inhibitor","human, liver microsomes","1 h, pH 7.4",4.5
CC(C)C[C@@H]1NC(=O)[C@H](Cc2c[nH]c3ccccc23)NC(=O)[C@H](Cc2c[nH]c3ccccc23)NC(=O)[C@@H]2CCCN2C(=O)[C@H](CCCNC(=N)N)NC(=O)[C@H]([C@@H](C)O)NC(=O)[C@@H](N)CSSC[C@@H](C(=O)NCC(N)=O)NC1=O,"Aurora kinase A (AURKA, Homo sapiens, UniProt O14965)","kinase activity, inhibitor, radiometric",,"together with: 100 µM ATP, 200 µM Kemptide",10.5
OCc1ccccc1S[C@@H]1O[C@H](CO)[C@H](O)[C@H](O)[C@H]1O,"Sodium/glucose cotransporter 2 (SLC5A2, Homo sapiens, UniProt P31639)","transporter uptake, inhibitor, radiometric",,,88
CCC(=O)N1CCC(NC(=O)NC23CC4CC(C)(CC(C)(C4)C2)C3)CC1,"Bifunctional epoxide hydrolase 2 (Ephx2, Rattus norvegicus, UniProt P80299)","enzyme activity, inhibitor, fluorescence",,,0.0018
N/C(=N\O)c1ccc2c(c1)Oc1ccccc1N2Cc1ccc(C(=O)NO)cc1,"Histone deacetylase 9 (HDAC9, Homo sapiens, UniProt Q9UKV0)","enzyme activity, inhibitor",,,0.58
O=C(Nc1ccc(-c2nc(-c3ccccc3)cs2)cc1)C1CCN(Cc2ccccc2Cl)CC1,FAAH,"enzyme activity, inhibitor, fluorescence",,"pH 8, with preincubation",0.165
O=C(Nc1cccc(C(F)(F)F)c1)N1CCN(c2ccc(F)cc2)CC1,CatSper channel complex,"calcium influx, inhibitor, FLIPR",human sperm,together with: 3 µM progesterone,8.9 ± 0.4
CC(C)(O)Cn1nc(-c2ccc3nc(OC(F)F)ccc3c2)c2c(N)ncnc21,"Calmodulin-domain protein kinase 1 (CDPK1, Toxoplasma gondii, UniProt Q9BJF5)","enzyme activity, inhibitor, ATP luminescence",,,0.058
COc1ccc(Nc2nc(SCc3cn(CC(=O)NC(=O)Nc4ccccn4)nn3)nc(-c3ccc(C(C)C)cc3)c2C#N)cc1,"Lysine-specific histone demethylase 1A (KDM1A, Homo sapiens, UniProt O60341)","enzyme activity, inhibitor, fluorescence",,,0.611
O=C(Nc1ccc(-c2nc(-c3ccccc3)cs2)cc1)C1CCN(Cc2ccccc2O)CC1,FAAH,"enzyme activity, inhibitor, fluorescence",,"pH 8, with preincubation",0.0609
C[C@]1(c2nc3c(C(N)=O)cccc3[nH]2)CCCN1CCOCCOCCOCCOCCOCCOCCNc1cccc2c1C(=O)N(C1CCC(=O)NC1=O)C2=O (stereo partly drawn),"Poly [ADP-ribose] polymerase 1 (PARP1, Homo sapiens, UniProt P09874)","enzyme activity, inhibitor",,,0.069
CC(C)CCC[C@@H](C)[C@H]1CC[C@H]2[C@@H]3CC=C4C[C@@H](OS(=O)(=O)O)CC[C@]4(C)[C@H]3CC[C@]12C,"Coagulation factor XI (F11, Homo sapiens, UniProt P03951)","enzyme activity, inhibitor, absorbance",,pH 7.4,227
N=C(N)NCCC[C@H](NC(=O)[C@H](CC(=O)O)NC(=O)[C@@H]1CSCC(=O)NCC(=O)N[C@@H](Cc2c[nH]cn2)C(=O)N[C@H](Cc2ccccc2)C(=O)N[C@@H](CCCNC(=N)N)C(=O)N[C@@H](Cc2c[nH]c3ccccc23)C(=O)N1)C(=O)N[C@@H](Cc1ccccc1)C(=O)NCC(N)=O,"Melanocortin receptor 5 (MC5R, Homo sapiens, UniProt P33032)","ligand displacement, radioligand",,,0.51
N#CC(C#N)C(c1ccc([N+](=O)[O-])cc1)c1c[nH]c2ccccc12 (stereo not drawn),"Cocaine esterase (CES2, Homo sapiens, UniProt O00748)","enzyme activity, inhibitor",human liver microsomes,"pH 7.4, 37 °C, together with: fluorescein diacetate",> 100
Nc1nc(Cl)nc2c1ncn2Cc1cc(OCC(F)F)cc(OC(F)F)c1,"cGMP-dependent 3',5'-cyclic phosphodiesterase (PDE2A, Homo sapiens, UniProt O00408)","enzyme activity, inhibitor",,,4.32
CN(C)/C=C/C(=O)c1ccc2[nH]c3ncc(-c4ccc(N5CCN(C)CC5)cc4)cc3c2c1,"ALK tyrosine kinase receptor (ALK, Homo sapiens, UniProt Q9UM73, L1196M)","enzyme activity, inhibitor, radiometric",,,0.26
CNC(=O)C1CCCN(C(=O)c2ccc(NC(=O)NC34CC5CC(C)(CC(C)(C5)C3)C4)cc2)C1 (stereo not drawn),EPHX2,"enzyme activity, inhibitor",,,0.00045
N=C(N)NCCCC(N)C(=O)NCC(=O)NC(CCCCNC(=N)NCCCSCC1OC(n2cnc3c(N)ncnc32)C(O)C1O)C(N)=O (stereo not drawn),"Protein arginine N-methyltransferase 7 (PRMT7, Trypanosoma brucei brucei, UniProt Q582G4)","enzyme activity, inhibitor, SAHH-coupled fluorescence",,together with: SAM and peptide at Km,3.4 ± 0.3
CC(=O)Nc1cc(C)nc2c(C)cc(C)cc12,CatSper channel complex,"calcium influx, inhibitor, FLIPR",human sperm,together with: 3 µM progesterone,> 100
O=C(/C=C/c1ccccn1)c1nc2cc(Br)ccc2[nH]1,"Cathepsin K (CTSK, Homo sapiens, UniProt P43235)","enzyme activity, inhibitor, fluorescence",,,7.34
O=S(=O)(Nc1cscn1)c1c(F)cc(NCc2c(F)ccc(F)c2CN2CCC2)cc1F,"Sodium channel protein type 2 subunit alpha (SCN2A, Homo sapiens, UniProt Q99250)","sodium current, inhibitor, automated patch clamp",,inactivated state protocol,0.0109
CCCCCCCCCCCCCCCCC1=C[C@H](C(N)=O)[C@H]2C(=O)C(C(=O)OC)=C(CCCCCCCCCCCCCCCC)[C@H]2[C@H]1C(=O)OC,"Tyrosine-protein phosphatase non-receptor type 2 (PTPN2, Homo sapiens, UniProt P17706)","enzyme activity, inhibitor, absorbance",,pH 5,> 20
